Experimental data collected from several papers.
Parts stem from different laboratories: compare values within a part only. Changes are numbered by the printed parent chain.

Block 1 — technique: DHFR PCA, deep sequencing; sample: yeast; added: (+)-ABA 1.4 µM; reference: wild-type fitted maximum; reading: higher = stronger binding; quantity: relative binding score
Target: ABI1, truncated, D143A, DHFR fusion (Arabidopsis thaliana)
Setting: methotrexate growth selection, single substitutions
Parent: PYL1, truncated, DHFR fusion (Arabidopsis thaliana); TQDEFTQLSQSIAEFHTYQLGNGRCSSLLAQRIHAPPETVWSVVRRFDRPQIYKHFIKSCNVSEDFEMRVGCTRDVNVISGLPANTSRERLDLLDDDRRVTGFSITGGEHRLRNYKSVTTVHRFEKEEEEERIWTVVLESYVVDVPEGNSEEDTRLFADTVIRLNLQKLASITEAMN; partner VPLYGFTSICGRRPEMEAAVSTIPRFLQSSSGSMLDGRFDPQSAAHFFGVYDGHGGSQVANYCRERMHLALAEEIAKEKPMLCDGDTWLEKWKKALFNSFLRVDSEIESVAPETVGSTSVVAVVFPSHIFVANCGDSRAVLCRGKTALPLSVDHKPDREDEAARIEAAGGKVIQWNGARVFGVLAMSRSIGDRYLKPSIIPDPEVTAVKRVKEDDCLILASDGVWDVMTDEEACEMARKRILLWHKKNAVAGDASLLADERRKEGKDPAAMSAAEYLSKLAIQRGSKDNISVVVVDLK
R113H: 50.9%
R45F: -13%
R45A: -5.95%
R98D: 13.6%
N61F: 55.4%
F66V: 22.1%
E151R: 38%
M68H: 23.6%
L138W: -3.82%
R98S: 14.6%
V118R: 64.7%
T160W: 1.47%
E38G: 10.1%
D96T: -1.07%
E174P: 1.7%
Y141H: 16.7%
I162M: 7.72%
K126F: 51.6%

Block 2 — technique: protein binding microarray; form: double-stranded DNA, one strand shown; sample: in vitro; concentration: not given; reference: not given; reading: higher = stronger binding; quantity: E-score
Target: Histone acetyltransferase KAT6A, winged helix 1, GST fusion (KAT6A, Homo sapiens, UniProt Q92794, residues 1-85)
Setting: 8-mer, flanks averaged, mean of 2 arrays, mostly near background
Target sequence (chain): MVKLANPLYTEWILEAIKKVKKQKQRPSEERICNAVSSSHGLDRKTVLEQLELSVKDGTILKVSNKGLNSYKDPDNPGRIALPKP
AAAAATAT: -0.155
GTACCGTA: 0.265
GGTAGGGA: -0.0719
TACCGAGA: -0.0125
CGGTCATA: 0.148
AGGGCCCA: -0.238
CACGTCAA: -0.121
AAAGTGTA: -0.23
CGGTGTCA: 0.0825
AATTGCAG: -0.107
AAATAAAA: -0.0629
CGAACCAA: -0.116
TACGAAAA: -0.219
AATTCCAC: -0.239
ACATAGGA: -0.076
CGTAGAGC: 0.0773
AGTGGGCC: -0.221
CCTGCAAG: -0.193
AGGGGGTA: -0.208

Block 3 — technique: RNA Bind-n-Seq; form: RNA; sample: in vitro; concentration: not given; reference: input RNA pool; reading: higher = stronger binding; quantity: bound/input enrichment
Target: RING finger protein unkempt homolog, zinc fingers 1-6, GST-SBP tag (UNK, Homo sapiens, UniProt Q9C0B0, residues 30-357)
Setting: RNA with constant flanks, human and mouse sites, ends assumed
Residues (chain): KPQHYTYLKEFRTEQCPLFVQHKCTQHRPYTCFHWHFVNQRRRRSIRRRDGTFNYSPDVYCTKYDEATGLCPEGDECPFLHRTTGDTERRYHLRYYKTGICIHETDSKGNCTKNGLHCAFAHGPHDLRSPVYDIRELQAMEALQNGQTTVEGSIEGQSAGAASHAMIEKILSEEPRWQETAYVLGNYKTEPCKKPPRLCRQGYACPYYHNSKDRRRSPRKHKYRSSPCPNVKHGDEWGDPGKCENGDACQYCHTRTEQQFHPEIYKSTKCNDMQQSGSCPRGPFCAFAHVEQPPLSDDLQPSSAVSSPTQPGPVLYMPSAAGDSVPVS
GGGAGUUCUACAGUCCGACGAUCGAUUAUUUGUAAAACACACAAGAAACCAUCUCUGAUCUGCCUGUGCUAACCCAGCUGAACAAUGGAAGAUAUUUGUUGUAAAUUAAAGGAAUUGAUUUGUAUAUAGUUGCUGCCAUAAAUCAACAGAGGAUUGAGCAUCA: 0.238 ratio
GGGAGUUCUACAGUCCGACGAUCUCUUUUUGAGGGUCCUUUUGUUUUCCUUUGCUUUUCUUUUGGCCUUCCCUCUGUCUUUCACUUAGACCAGCUAUUUGAAAGGGCAGACGAUGCUAAAGGUGUACUGUGCAGCUUGUUUAGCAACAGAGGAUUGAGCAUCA: 0.155 ratio
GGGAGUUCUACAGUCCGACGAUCGGUUUUGACCGCCACAUUACCAUUUUUUCACCCGAGGGUCGGCUCUACCAAGUAGAAUAUGCUUUUAAGGCUAUUAACCAGGGUGGCCUUACAUCAGUAGCUGUCAGAGGGAAAGACUGUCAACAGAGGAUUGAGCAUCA: 0.398 ratio
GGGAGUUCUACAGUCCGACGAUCUGGUGGAGAUCCCCGCCCCUCAGGACUAUUGGGGCCCUGUAUUUGCCAUCUGCAUCUUCCUUUUUUCCUUCAUCAUCCCGGUUCUGAUCAUCUCUGUCUGCUACAGCCUCAUGAUUCGACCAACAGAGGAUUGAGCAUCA: 0.361 ratio
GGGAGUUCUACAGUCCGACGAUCGGUACGGGUCUUCCUGCCUCAUUCCUCUUCCUCUUUGUGUAGGUUUCAGCCACAAAACUGUCAUUCACUCUAGGGGACCCCUACUAAAGGGUAACUUCAGGUGUGCAGCCCUGAGCUCCACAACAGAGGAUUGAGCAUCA: 0.0936 ratio
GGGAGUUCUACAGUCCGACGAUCAGAGUUACCCCAAAGGAAUGGAGGAAUCAGUAAUCAUCCCAGCUGGUGUAAUAAUGAAUUGUUUAAAAAACAGCUCAUAAUUGAUGCCAAAUUAAAGCACUGUGUACCCAUUAAGAUAUGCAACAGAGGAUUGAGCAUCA: 0.142 ratio
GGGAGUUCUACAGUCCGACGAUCAAUGAAGAAGAAAUACGUGCAAAUGUGGCCGUGGUUUCUGGUGCACCACUUCAGGGGUUGGUAGCAAGACCUUCCAGUAUAAACUAUAUGGUGGCUCCUGUAACUGGUAAUGAUGUUGGACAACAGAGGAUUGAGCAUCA: 0.437 ratio
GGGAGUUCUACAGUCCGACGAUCAUGGACCUGCAGCUCCACAUUUACCAGCUGAAAACCCUGAUCAGGAUGGUAAAGAAAACCUAUAGAGAUUUCCGAUUGCAAGGGGUCCUGGAUUCCACCUUAAACAGCAAGACCUAUGAGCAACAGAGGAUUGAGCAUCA: 1.31 ratio
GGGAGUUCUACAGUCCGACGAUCGCCUACCUGUAUUCUUAUGUGAUGCCCCAGGCCAUCCGGGACAUGGUGGACGAGUACAUCAACUGUGAGGAUAUCGCCAUGAACUUCCUUGUCUCCCACAUCACACGGAAACCCCCCAUCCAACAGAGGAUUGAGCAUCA: 0.219 ratio
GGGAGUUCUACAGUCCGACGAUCGUAGAGCCCAGCCCCUCCCCAAUCAAGCCUGGAGAUAUUAAAAGAGGAAUUCCCAAUUAUGAAUUUAAACUUGGAUGAAGCUGGAGGCAGAUUCGUCGCUUUCUCUGGAGAAGGACAGUCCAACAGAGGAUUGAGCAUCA: 3.38 ratio
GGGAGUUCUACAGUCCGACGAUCUUUAUAGAAAUCACCGAUGACCAGUUUGACUUUCAUACAUACUGUAUGAGGAAGAUCACCCUUAGAUCAUAUGUGGACUUAUUAAAACUAGAAGAUGUACUUCGACAGCAUCCAUUUUACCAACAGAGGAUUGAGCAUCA: 4.37 ratio

Block 4 — technique: RNA Bind-n-Seq; form: RNA; sample: in vitro; concentration: 365 nM; reference: no-protein control; reading: higher = stronger binding; quantity: RBNS enrichment (R)
Target: RNA binding protein fox-1 homolog 2, RRM domain, GST-SBP tag (RBFOX2, Homo sapiens, UniProt O43251-10, residues 100-194)
Setting: natural RNA segment, single round, ends assumed
Target sequence (chain): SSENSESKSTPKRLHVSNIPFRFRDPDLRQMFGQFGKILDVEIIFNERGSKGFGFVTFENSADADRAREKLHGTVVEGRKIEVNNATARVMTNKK
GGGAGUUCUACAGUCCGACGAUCUUUGAGAAUUUUUUUUGUACAGCAUUCAUGUGUGAUAUUUUCCAGAUUUGUUGGAUCUAUUUGGUUUAAAAAGUAUUCUAUCUUAAGGCCAACUAAUAUAAAAUACCAUUUGGAAUUCUCGGGUGCCAA: 0.837
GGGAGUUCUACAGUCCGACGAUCUGCUGUCUUUGUUUUCCUUUGUCUUUCUCCUGUUUGCCAAAAUUCAAUUCAAGUUGUGAUUUUCAAGAGGACCUCAAAACAAUUCUGUACUUAAUAUAAAAAUCAAUGUCUGGAAUUCUCGGGUGCCAA: 0.505
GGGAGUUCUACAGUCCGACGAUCUGGUUCAGCAUACCUUAUAGUUCGUAUAUAACCUGUAUUAAUUGUAUAGAUUGUGCAUUUAAAGCUGUUACCAAGUUGUCAGAACCCUAAGAAUGAAAACAGGUCAUAUGUGGAAUUCUCGGGUGCCAA: 2.53
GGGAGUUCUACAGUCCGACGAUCUUCACUAUGUUGCCCAGGCUGAUCUCGAACUCCUAGGCUCAAGCAAUCCUCCCAAUAUGCUGGGAUUACAGGCAUGAGCCACCACCUGGCCCAAGCAAGAAAUUGACACUUGGAAUUCUCGGGUGCCAA: 0.2
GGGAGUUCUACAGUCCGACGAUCGAGAGAAAGGGCCAAUCUGUAGGGGUAGCCCUGUCCAGGUAAAGUUGUUUUCAGCCUCAUGUCUACUGUUAGGUGAGGGAGUCACAGCCAGACAGAGAGUAUUGCUGGAGUGGAAUUCUCGGGUGCCAA: 0.545
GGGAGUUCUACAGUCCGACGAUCUGUCUUUUAAUAGAUAUAGGCAUCUGUUCAUCCACAUUUGAACACAGAGCUAAAGAAACGUUUUUUAAAAAACUACUUUUAAUCCAGAUCCAUGGAAUAAUAUGUAAUUCUGGAAUUCUCGGGUGCCAA: 0.357
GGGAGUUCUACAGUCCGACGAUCGUGAUGUCACAGUGCAAACUGCAGUGACUGUAAAUUGGCCUGGCGUGUAUAAACGUUUUCAGGGAAUGCAGAAGGUAUUAAUGAAGAGACAAAACCUUUAUUCCAUGUGCUGGAAUUCUCGGGUGCCAA: 0.967
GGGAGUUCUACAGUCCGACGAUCCUGCUGCCCUAGCGCCGGCUUGGCCGCGCCCACGCGCCCUCAAGCCAUGCUGCUCCUUUCUGUAAAUACCCGCUGCAGUGGCGGCCCAGAGCGAGGAACAAGCCAUUAGGUGGAAUUCUCGGGUGCCAA: 0.214
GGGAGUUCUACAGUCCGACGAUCUUUUCCAGUGAGGUUGUAGACCCUGCAAACCUAACUGUAACAUAGCCUUCACAAGCAUGAUAAACCCUCCCUGUUGUGUAUAGUAACGGUCUCAUUUUAUAGUCCACCUUUGGAAUUCUCGGGUGCCAA: 1.13
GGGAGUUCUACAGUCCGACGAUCUGUGUUAUUUUCCACAGAAUAUAGAAUAUAUAUUUUUUUCGUGUGUGUUUUUGUUAACUACCCUACAGAUAUUGAAUGCACCUUGAGAUAAUUUAGUGUUUUUAACUGAUUGGAAUUCUCGGGUGCCAA: 0.629
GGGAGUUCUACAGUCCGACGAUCGGCAGCGUGACUCCUGCUGUCCUCCAGCCUUUCAGAUGAGAUCCUAUUCCAGCCAAAUGCAGGGAAACACUUUAUUUUGUUUGUUUUAGGUUUUGUUUUUCCUUGAGAGCUGGAAUUCUCGGGUGCCAA: 0.588
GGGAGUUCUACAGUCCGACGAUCGGAUUAUGUAUUUUUAACUAAGGUGAGACAUUGAUAUAUCCUUUUGCUACAAGCUAUAGCUAAUGUGCUGAGCUUGUGCCUUGGUGAUUGAUUGAUUGAUUGACUGAUUGUGGAAUUCUCGGGUGCCAA: 0.325

Single results of other studies
GSAKRRLFGEDPP  score relative, wild type, peptide (human cyclin A1; cyclin docking binding, deep mutational scanning; peptide, yeast cyclin A1-Cln2 system; direction not given): 0
